Measurements of several laboratories.
Compare with care: the assays were run in different laboratories. pIC50: −log10 of the molar value.
Cell line: ASPC1
Read-out: cell growth or viability

CC(=O)Oc1cccc(/C=C/C(=O)Nc2nc(=O)n([C@@H]3O[C@H](C)[C@@H](OC(C)=O)[C@H]3OC(C)=O)cc2F)c1  pIC50 (MTT; 72 h): 4.43
Cc1ncsc1-c1ccc(C(CO)NC(=O)C2CC(O)CN2C(=O)C(C(C)C)n2cc(-c3ccc(COc4c(-c5c(C)c(F)cc6[nH]ncc56)c(C5CC5)cc5c(N6CC7CC6CN7)nc(OC6CCOCC6)nc45)cc3)nn2)cc1 (stereo not drawn)  pIC50 (ATP luminescence; 6 days): 7.72
N#C/C(=C\c1cn(-c2ccccc2)nc1-c1ccc(Br)cc1)c1nc2ccccc2[nH]1  pIC50 (ATP luminescence; 72 h): < 4.00
Cc1nc(-c2ccc(Cl)cc2)nc(N2CCC(C)(N)CC2)c1Cc1ccccc1  pIC50 (WST-1; 72 h): 5.24
N#C/C(=C\c1cn(-c2ccccc2)nc1-c1ccc(F)cc1)c1nc2ccccc2[nH]1  pIC50 (ATP luminescence; 72 h): 4.48
COC1=C(OC)C(O)C(CC=C(C)CCC=C(C)CCC=C(C)C(=O)O)C(C)C1=O (stereo not drawn)  pIC50 (MTS; 48 h): < 4.60
CC(=O)O[C@@H]1[C@H](OC(C)=O)[C@@H](C)O[C@H]1n1cc(F)c(NC(=O)/C=C/c2ccc(O)c(O)c2)nc1=O  pIC50 (MTT; 72 h): 3.88
COc1ccc2c(c1)C(=C1Nc3ccccc3C1=NOCC(O)CO)C(=O)N2 (stereo not drawn)  pIC50 (MTS; 48 h): 5.89
CC1(N)CCN(c2nc(N(Cc3ccccc3)Cc3ccccc3)nc3c2ncn3Cc2ccccc2)CC1  pIC50 (WST-1; 72 h): 5.20
COC(=O)[C@@H](Cc1cn(Cc2ccc(C)cc2)nn1)NC(=O)OCC1c2ccccc2-c2ccccc21  pIC50 (MTS; 72 h): < 4.00
CC(=O)Oc1ccc(/C=C/C(=O)Nc2nc(=O)n([C@@H]3O[C@H](C)[C@@H](OC(C)=O)[C@H]3OC(C)=O)cc2F)cc1  pIC50 (MTT; 72 h): 4.24
N#C/C(=C\c1cn(-c2ccccc2)nc1-c1cccc(Br)c1)c1nc2ccccc2[nH]1  pIC50 (ATP luminescence; 72 h): 4.08
COC(=O)[C@@H](Cc1cn(Cc2ccc(C#N)cc2)nn1)NC(=O)OCC1c2ccccc2-c2ccccc21  pIC50 (MTS; 72 h): 5.76
CCCCCCCCCCCCCCOC(=O)Nc1ccn([C@@H]2O[C@H](CO)[C@@H](O)C2(F)F)c(=O)n1  pIC50 (MTT; 48 h): 5.89
Cc1ccc(-c2nn(-c3ccccc3)cc2/C=C(\C#N)c2nc3ccccc3[nH]2)cc1  pIC50 (ATP luminescence; 72 h): < 4.00

For quick reference, copied from above:
N#C/C(=C\c1cn(-c2ccccc2)nc1-c1cccc(Br)c1)c1nc2ccccc2[nH]1  pIC50 (ATP luminescence; 72 h): 4.08
